Results of several laboratories.
Protocols differ between the studies behind these lines. Numbers after ± are the reported error.
Method: steady-state kinetics
B1: protein G95D/P94L (Streptomyces coelicolor, UniProt P16544); chain MATQDSEVALVTGATSGIGLEIARRLGKEGLRVFVCARGEEGLRTTLKELREAGVEADGRTCDVRSVPEIEALVAAVVERYGPVDVLVNNAGRLDGGATAELADELWLDVVETNLTGVFRVTKQVLKAGGMLERGTGRIVNIASTGGKQGVVHAAPYSASKHGVVGFTKALGLELARTGITVNAVCPGFVETPMAASVREHYSDIWEVSTEEAFDRITARVPIGRYVQPSEVAEMVAYLIGPGAAAVTAQALNVCGGLGNY
B2: enzyme R116A (Acetivibrio thermocellus, UniProt A3DJ38); chain MKLTIPELSLVVLIGSSGSGKSTFAKKHFKPTEVISSDFCRGLVSDDENDQTVTGAAFDVLHYIVSKRLQLGKLTVVDATNVQESARKPLIEIAKDYHCFPVAVVFNLPEKVCQEANKNRTDRQVEEYVIRKHTQQLKKSIKGLQREGFRYVYILNSPEEVEEVVFERQP
B3: enzyme (Enterococcus faecalis, UniProt Q836D9); chain MKKILTYGTFDLLHYGHINLLKKAKQQGDYLIVGLSTDAFNLEKKKQSYFSYEKRKQLLEAIRYVDLVIPETSWKQKVSDIAEFKIDTLVMGDDWQGAFDFLEVETTAKVLYLPRTPEVSTTQIKKELYYSE
B4: MTRR A129T (Homo sapiens, UniProt Q9UBK8); chain MRRFLLLYATQQGQAKAIAEEICEQAVVHGFSADLHCISESDKYDLKTETAPLVVVVSTTGTGDPPDTARKFVKEIQNQTLPVDFFAHLRYGLLGLGDSEYTYFCNGGKIIDKRLQELGARHFYDTGHTDDCVGLELVVEPWIAGLWPALRKHFRSSRGQEEISGALPVASPASSRTDLVKSELLHIESQVELLRFDDSGRKDSEVLKQNAVNSNQSNVVIEDFESSLTRSVPPLSQASLNIPGLPPEYLQVHLQESLGQEESQVSVTSADPVFQVPISKAVQLTTNDAIKTTLLVELDISNTDFSYQPGDAFSVICPNSDSEVQSLLQRLQLEDKREHCVLLKIKADTKKKGATLPQHIPAGCSLQFIFTWCLEIRAIPKKAFLRALVDYTSDSAEKRRLQELCSKQGAADYSRFVRDACACLLDLLLAFPSCQPPLSLLLEHLPKLQPRPYSCASSSLFHPGKLHFVFNIVEFLSTATTEVLRKGVCTGWLALLVASVLQPNIHASHEDSGKALAPKISISPRTTNSFHLPDDPSIPIIMVGPGTGIAPFIGFLQHREKLQEQHPDGNFGAMWLFFGCRHKDRDYLFRKELRHFLKHGILTHLKVSFSRDAPVGEEEAPAKYVQDNIQLHGQQVARILLQENGHIYVCGDAKNMAKDVHDALVQIISKEVGVEKLEAMKTLATLKEEKRYLQDIWS
B5: protein (Planktothrix agardhii, UniProt F5B6Z0); chain MIVNVIQKDRLKEQKLQFIRNHQQAFDVEPIYPLPLFEDFVTSIEGDCSLEASCKIESDKLIASRFLLFFEDKTQEWQKYLHQSLTFFGLVENRVGVKINYSLLQQFLGSSFDFSKVTVLSAGIDLRNNLAESSLKMHIRIKDYPEKLDKAFALSDGAADGNYLKDFVNLIGFDFYFNGKSEIEIYAEVQEDDFFKPEINNLVWQHFPKTALQPLKASSLFFTGLSKANNNPVLYYHLKNRQDLTNYFKLNDTAQRVHSFYQHQDILPYMWVGTAQKELEKTRIENIRLYYYKSFKMESN
B6: UGT74D1 (Arabidopsis thaliana, UniProt Q9SKC5); chain MGEKAKANVLVFSFPIQGHINPLLQFSKRLLSKNVNVTFLTTSSTHNSILRRAITGGATALPLSFVPIDDGFEEDHPSTDTSPDYFAKFQENVSRSLSELISSMDPKPNAVVYDSCLPYVLDVCRKHPGVAAASFFTQSSTVNATYIHFLRGEFKEFQNDVVLPAMPPLKGNDLPVFLYDNNLCRPLFELISSQFVNVDDIDFFLVNSFDELEVEVLQWMKNQWPVKNIGPMIPSMYLDKRLAGDKDYGINLFNAQVNECLDWLDSKPPGSVIYVSFGSLAVLKDDQMIEVAAGLKQTGHNFLWVVRETETKKLPSNYIEDICDKGLIVNWSPQLQVLAHKSIGCFMTHCGWNSTLEALSLGVALIGMPAYSDQPTNAKFIEDVWKVGVRVKADQNGFVPKEEIVRCVGEVMEDMSEKGKEIRKNARRLMEFAREALSDGGNSDKNIDEFVAKIVR
B7: PTR1 (Leishmania major, UniProt Q01782); chain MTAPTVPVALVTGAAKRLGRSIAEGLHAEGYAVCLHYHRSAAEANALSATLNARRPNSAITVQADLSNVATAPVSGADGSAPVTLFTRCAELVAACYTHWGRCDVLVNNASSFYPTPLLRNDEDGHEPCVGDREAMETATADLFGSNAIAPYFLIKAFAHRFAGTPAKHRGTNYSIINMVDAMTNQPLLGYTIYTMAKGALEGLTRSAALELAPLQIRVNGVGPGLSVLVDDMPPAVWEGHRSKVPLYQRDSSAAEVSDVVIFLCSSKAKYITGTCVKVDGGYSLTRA
B8: PRODH2 157-515 (Homo sapiens, UniProt Q9UF12); chain YGQFVAGETAEEVKGCVQQLRTLSLRPLLAVPTEEEPDSAAKSGEAWYEGNLGAMLRCVDLSRGLLEPPSLAEASLMQLKVTALTSTRLCKELASWVRRPGASLELSPERLAEAMDSGQNLQVSCLNAEQNQHLRASLSRLHRVAQYARAQHVRLLVDAEYTSLNPALSLLVAALAVRWNSPGEGGPWVWNTYQACLKDTFERLGRDAEAAHRAGLAFGVKLVRGAYLDKERAVAQLHGMEDPTQPDYEATSQSYSRCLELMLTHVARHGPMCHLMVASHNEESVRQATKRMWELGIPLDGTVCFGQLLGMCDHVSLALGQAGYVVYKSIPYGSLEEVIPYLIRRAQENRSVLQGARRE
B9: enzyme P89H (Thermobifida fusca, UniProt Q47RA9); chain MIMIMASKSSPHDLPDVSGLSIAVLGGTGDQGRGLARRFAMAGHEVILGSRSAERAQAVAAELGEGLPVRGMDNAGAAEAGDVVIVAVHWDGHRALLESLKDVLAGKIVVDCVNPLGFDKRGAYALPVEEGSAAEQAAAILPDSRVVAAFHHVSAVLLLDPEVEKVDLDVLVLGDDREATDVVRALAARIPGVRGVYGGRLRNAHQVEAFTANLISINRRYKAHAGIRITDI
B10: CstB (Staphylococcus aureus, UniProt G5ELA4); chain MFFKQFYDNHLSQASYLVGCQRTGEAIIIDPVRDLSKYIEVADSEGLTITQATETHIHADFASGIRDVAKRLNANIYVSGEGEDALGYKNMPSKTQFVKHGDIIQVGNVKLEVLHTPGHTPESISFLLTDLGGGSSVPMGLFSGDFIFVGDIGRPDLLEKSVQIKGSTEISAKQMYESVQNIKNLPDYVQIWPGHGAGSPCGKALGAIPISTIGYEKINNWAFNEIDETKFIESLTSNQPAPPHHFAQMKQVNQFGMNLYQSYDVYPSLDNKRVAFDLRSKEAFHGGHTKGTINIPYNKNFINQIGWYLDFEKDIDLIGDKSTVEKAKHTLQLIGFDKVAGYRLPKSGISTQSVHSADMTGKEEHVLDVRNDEEWNNGHLDQAVNIPHGKLLNENIPFNKEDKIYVHCQSGVRSSIAVGILESKGFENVVNIREGYQDFPESLK
UniProt Q9A9H3, sequence (whole entry, looked up): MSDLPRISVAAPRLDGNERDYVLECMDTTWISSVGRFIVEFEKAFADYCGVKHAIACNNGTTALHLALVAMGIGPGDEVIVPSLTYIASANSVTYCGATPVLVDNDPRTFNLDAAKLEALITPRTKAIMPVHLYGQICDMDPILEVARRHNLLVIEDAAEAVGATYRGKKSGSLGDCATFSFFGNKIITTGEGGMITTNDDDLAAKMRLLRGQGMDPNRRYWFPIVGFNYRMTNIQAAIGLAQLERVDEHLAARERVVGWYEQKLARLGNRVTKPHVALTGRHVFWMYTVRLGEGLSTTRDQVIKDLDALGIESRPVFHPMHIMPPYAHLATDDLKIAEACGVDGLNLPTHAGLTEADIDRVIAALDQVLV
UniProt Q51366, sequence (whole entry, looked up): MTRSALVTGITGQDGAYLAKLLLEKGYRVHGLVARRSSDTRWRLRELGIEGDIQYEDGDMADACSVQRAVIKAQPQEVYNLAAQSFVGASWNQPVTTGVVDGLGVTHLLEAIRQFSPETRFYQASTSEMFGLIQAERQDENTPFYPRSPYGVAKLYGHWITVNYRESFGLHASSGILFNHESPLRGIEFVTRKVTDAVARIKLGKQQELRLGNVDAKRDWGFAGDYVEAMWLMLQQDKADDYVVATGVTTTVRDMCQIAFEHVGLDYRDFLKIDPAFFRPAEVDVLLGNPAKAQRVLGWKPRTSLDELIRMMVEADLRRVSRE
UniProt Q8C0L6, sequence (whole entry, looked up): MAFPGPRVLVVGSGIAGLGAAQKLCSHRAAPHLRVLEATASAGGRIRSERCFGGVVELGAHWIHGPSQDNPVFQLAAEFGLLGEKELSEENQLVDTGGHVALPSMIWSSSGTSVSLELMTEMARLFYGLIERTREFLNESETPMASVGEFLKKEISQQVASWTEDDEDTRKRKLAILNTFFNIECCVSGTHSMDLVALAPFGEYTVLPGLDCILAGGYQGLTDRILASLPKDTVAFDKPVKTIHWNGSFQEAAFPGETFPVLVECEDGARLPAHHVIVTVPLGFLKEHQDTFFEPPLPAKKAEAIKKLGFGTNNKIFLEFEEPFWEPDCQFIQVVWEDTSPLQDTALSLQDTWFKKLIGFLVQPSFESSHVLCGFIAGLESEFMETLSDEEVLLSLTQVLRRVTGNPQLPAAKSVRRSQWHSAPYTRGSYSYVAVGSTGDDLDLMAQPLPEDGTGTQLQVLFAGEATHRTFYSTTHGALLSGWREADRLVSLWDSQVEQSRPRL
UniProt Q27593, sequence (whole entry, looked up): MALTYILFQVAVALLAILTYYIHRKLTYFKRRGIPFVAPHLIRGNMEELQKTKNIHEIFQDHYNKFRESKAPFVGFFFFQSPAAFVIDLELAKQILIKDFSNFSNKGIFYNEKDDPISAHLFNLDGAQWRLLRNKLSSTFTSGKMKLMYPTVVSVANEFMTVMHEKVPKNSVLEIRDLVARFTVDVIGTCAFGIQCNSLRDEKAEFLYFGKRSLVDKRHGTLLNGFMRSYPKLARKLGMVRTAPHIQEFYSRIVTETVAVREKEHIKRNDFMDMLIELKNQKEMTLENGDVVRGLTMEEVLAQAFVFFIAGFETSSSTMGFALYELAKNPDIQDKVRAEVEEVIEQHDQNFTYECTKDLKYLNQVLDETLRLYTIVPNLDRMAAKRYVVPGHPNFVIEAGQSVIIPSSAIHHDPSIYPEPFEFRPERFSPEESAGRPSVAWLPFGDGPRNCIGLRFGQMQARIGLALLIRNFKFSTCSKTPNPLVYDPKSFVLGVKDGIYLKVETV
UniProt P76043, sequence (whole entry, looked up): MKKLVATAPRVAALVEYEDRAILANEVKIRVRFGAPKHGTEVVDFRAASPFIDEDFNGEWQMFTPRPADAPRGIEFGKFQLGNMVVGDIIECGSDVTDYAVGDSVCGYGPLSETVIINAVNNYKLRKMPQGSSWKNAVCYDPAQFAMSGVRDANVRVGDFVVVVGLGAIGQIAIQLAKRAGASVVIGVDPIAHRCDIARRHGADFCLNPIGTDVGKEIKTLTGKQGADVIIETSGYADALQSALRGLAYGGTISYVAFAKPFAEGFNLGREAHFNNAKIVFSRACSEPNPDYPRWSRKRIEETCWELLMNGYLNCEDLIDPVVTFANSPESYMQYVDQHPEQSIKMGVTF
UniProt P09950, sequence (whole entry, unmodified, looked up): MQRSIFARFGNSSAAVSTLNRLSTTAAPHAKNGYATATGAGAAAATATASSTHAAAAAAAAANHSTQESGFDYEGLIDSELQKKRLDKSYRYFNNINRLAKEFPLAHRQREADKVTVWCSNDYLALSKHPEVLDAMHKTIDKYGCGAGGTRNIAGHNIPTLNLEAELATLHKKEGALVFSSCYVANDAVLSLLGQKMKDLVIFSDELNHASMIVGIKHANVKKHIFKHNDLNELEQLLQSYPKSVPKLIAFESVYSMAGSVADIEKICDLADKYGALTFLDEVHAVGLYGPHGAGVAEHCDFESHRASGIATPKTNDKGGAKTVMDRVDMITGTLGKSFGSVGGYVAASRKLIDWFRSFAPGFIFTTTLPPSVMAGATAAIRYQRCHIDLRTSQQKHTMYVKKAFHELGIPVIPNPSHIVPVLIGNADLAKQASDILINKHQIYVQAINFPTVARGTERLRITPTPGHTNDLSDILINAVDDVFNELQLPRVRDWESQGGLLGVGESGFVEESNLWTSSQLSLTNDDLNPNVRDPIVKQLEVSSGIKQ

`CYP6A8 (Drosophila melanogaster, UniProt Q27593)` has a kcat of 0.000633 ± 3.33e-05 s⁻¹ (CCCCCCCCCCCC(=O)O; DLPC; pH 7.4, 37 °C, total hydroxylation, together with: P450 reductase, NADPH).
The kcat of `enzyme (Pseudomonas aeruginosa, UniProt Q51366)` is reported as 8.82 s⁻¹ (Nc1nc2c(ncn2[C@@H]2O[C@H](COP(=O)(O)OP(=O)(O)O[C@H]3O[C@H](CO)[C@@H](O)[C@H](O)[C@@H]3O)[C@@H](O)[C@H]2O)c(=O)[nH]1; 37 °C).
For `B1 (protein G95D/P94L)`, the kcat was 0.28 ± 0.03 s⁻¹ (O[C@H]1CCCc2ccccc21; pH 7.4, phosphate 400 mM, NADPH 250 µM printed, together with: NADP+, reverse reaction).
The kcat of `B2 (enzyme R116A)` is reported as 0.0733 ± 0.005 s⁻¹ (Nc1ncnc2c1ncn2[C@@H]1O[C@H](COP(=O)(O)OP(=O)(O)OP(=O)(O)O)[C@@H](O)[C@H]1O; pH 7, 45 °C).
For `GDP-perosamine synthase (Caulobacter vibrioides, UniProt Q9A9H3)`, the kcat was 2.7 ± 0.6 s⁻¹ (C[C@H]1O[C@H](OP(=O)(O)OP(=O)(O)OC[C@H]2O[C@@H](n3cnc4c(=O)[nH]c(N)nc43)[C@H](O)[C@@H]2O)[C@@H](O)[C@@H](O)C1=O; pH 7.5, room temperature, NaCl 110 mM, ping-pong fit, together with: L-glutamate cosubstrate; 100 µM PLP).
`B3 (enzyme)` has a kcat of 1.51 s⁻¹ (O=P(O)(O)OC[C@H](O)CO; pH 8, 37 °C, apparent).
With `pgmB H20A (Lactococcus lactis) (sequence not shown)` the kcat was 0.0197 ± 0.003 s⁻¹ (O=P(O)(O)OC[C@H]1O[C@@H](OP(=O)(O)O)[C@H](O)[C@@H](O)[C@@H]1O; pH 7, 25 °C).
With `B4 (MTRR A129T)` the kcat was 0.13 ± 0.004 s⁻¹ (CC1=CC(=O)c2ccccc2C1=O; pH 7.5, 37 °C, substoichiometric FMN, together with: NADPH).
With `B5 (protein)` the kcat was 0.122 ± 0.00233 s⁻¹ (CC(C)=CCOP(=O)(O)OP(=O)(O)O; together with: tri-Tyr peptide acceptor).
`B6 (UGT74D1)` has a kcat of 0.809 s⁻¹ (O=C(O)Cc1c[nH]c2ccccc12; pH 7.5, 30 °C).
The kcat of `HEM1 (Saccharomyces cerevisiae, UniProt P09950)` is reported as 0.0333 ± 0.00167 s⁻¹ (CC(C)(COP(=O)(O)OP(=O)(O)OC[C@H]1O[C@@H](n2cnc3c(N)ncnc32)[C@H](O)[C@@H]1OP(=O)(O)O)[C@@H](O)C(=O)NCCC(=O)NCCSC(=O)CCC(=O)O; pH 7.4, 30 °C).
`protein (Enterobacter lignolyticus, UniProt E3G9I4)` gave a kcat of 3540 ± 10 s⁻¹ (CCn1c(=NN=c2sc3cc(S(=O)(=O)O)ccc3n2CC)sc2cc(S(=O)(=O)O)ccc21; pH 3.5, 25 °C, together with: H2O2).
For `B7 (PTR1)`, the kcat was 0.57 s⁻¹ (C[C@H](O)[C@H](O)C1=Nc2c(nc(N)[nH]c2=O)NC1; pH 7.4, 25 °C, apparent).
With `Paox (Mus musculus, UniProt Q8C0L6)` the kcat was 49 ± 12 s⁻¹ (CC(=O)NCCCNCCCCNCCCN; pH 10, 30 °C).
`B8 (PRODH2 157-515)` has a kcat of 0.19 ± 0.01 s⁻¹ (O=C(O)[C@@H]1C[C@@H](O)CN1; pH 7.5, 25 °C, together with: CoQ1 electron acceptor 200 µM).
The kcat of `B9 (enzyme P89H)` is reported as 0.0483 ± 0.00367 s⁻¹ (NC(=O)c1ccc[n+](CCO)c1; pH 8, 25 °C).
`ycjQ (Escherichia coli, UniProt P76043)` has a kcat of 7 ± 0.2 s⁻¹ (CO[C@@H]1O[C@H](CO)[C@H](O)C(=O)[C@H]1O; pH 7, 30 °C, together with: NADH 0.3 mM, MnCl2 0.5 mM).
With `B10 (CstB)` the kcat was 19.3 ± 2.2 s⁻¹ (CC(C)(COP(=O)(O)OP(=O)(O)OC[C@H]1O[C@@H](n2cnc3c(N)ncnc32)[C@H](O)[C@@H]1OP(=O)(O)O)[C@@H](O)C(=O)NCCC(=O)NCCSS; pH 6, 25 °C, NaBr 100 mM, air-saturated, together with: Fe(II), O2).
